Results gathered from unrelated publications.
Each numbered part is a random draw from the data of one study; scales do not carry over between parts.

Series 1
Target: Max dimerization protein 1, bHLH-zipper, MAX partner unstated (MXD1, Homo sapiens, UniProt Q05195, residues 56-136)
Method: protein-binding microarray
Form: double-stranded DNA, one strand shown
Sample: in vitro
Concentration: not given
Setting: k-mer, scored over probes, only values ≥0.25
Reading: higher = stronger binding
Residues (chain): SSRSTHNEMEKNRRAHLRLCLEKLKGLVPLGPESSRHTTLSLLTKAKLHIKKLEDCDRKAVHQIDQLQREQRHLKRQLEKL
Oligonucleotide	E-score
CGTGGACA	0.309
CGTGGCGA	0.257
AACCCACC	0.269
GACCACGC	0.41
CGTGCGTC	0.394
CGCACACC	0.262

Series 2
Target: Histone acetyltransferase KAT6A, winged helix 2, GST fusion (KAT6A, Homo sapiens, UniProt Q92794, residues 85-181)
Method: protein binding microarray
Form: double-stranded DNA, one strand shown
Sample: in vitro
Concentration: not given
Setting: 8-mer, flanks averaged, mean of 2 arrays, mostly near background
Reference: not given
Reading: higher = stronger binding
Target sequence (chain): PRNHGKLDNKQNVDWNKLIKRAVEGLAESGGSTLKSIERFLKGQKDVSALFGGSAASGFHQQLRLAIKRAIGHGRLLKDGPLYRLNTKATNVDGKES
Oligonucleotide	E-score
ACCTATTC	-0.169
GATATATC	-0.0337
ATAAGCCC	-0.158
ATCTGAAC	0.0437
CTAGTTCC	0.18
TGAGTGAA	-0.141

Series 3
Target: Interferon regulatory factor 5, full length, phosphomimetic (IRF5, Homo sapiens, UniProt Q13568-2, residues 1-514, S451D/S453D/S456D/S462D)
Method: protein-binding microarray
Form: double-stranded DNA, one strand shown
Sample: in vitro
Concentration: 940 nM top
Setting: 60-bp whole probe
With: salmon DNA 0.4 mg/ml
Reference: random background probes
Reading: higher = stronger binding
All sequences stand within: GCCTAGCAC … GTGCTAGGTCTTGATTCGCTTGACGCTGCTG
Oligonucleotide	fitted relative affinity
GACGATTTCAGTATCGAAAC	3.73 z-score
TTAGGTTTCGGTTTCTGTTA	15.1 z-score
TCACATTTTGGTTTTCAACT	0.797 z-score
TCATGTTTGTGTGTGTAACT	0.337 z-score
TCAAACATCATTGTCATACT	-0.0822 z-score
GACGGAATGCTACTGCTGAC	-0.719 z-score

Mixed results
Molecule	target	test	system	setting	how to read	measurement	value
PhoQ, residues 284 288 289 292 302 303 SASVAL	PhoP, residues 12 14 15 18 19 SEGLL (Escherichia coli, UniProt P23836)	Sort-seq, measured: YFP reporter	E. coli	PhoQ-PhoP variant library, with: 10 µM Mg2+	reference: high Mg2+ state, higher = stronger signaling	fold induction	12

A few entries again (mixed results):
Molecule	target	test	system	setting	how to read	measurement	value
PhoQ, residues 284 288 289 292 302 303 SASVAL	PhoP, residues 12 14 15 18 19 SEGLL (Escherichia coli, UniProt P23836)	Sort-seq, measured: YFP reporter	E. coli	PhoQ-PhoP variant library, with: 10 µM Mg2+	reference: high Mg2+ state, higher = stronger signaling	fold induction	12
